Results gathered from unrelated publications.
Each numbered part is a random draw from the data of one study; scales do not carry over between parts.

Study 1
Target: Interferon regulatory factor 5, full length, phosphomimetic (IRF5, Homo sapiens, UniProt Q13568-2, residues 1-514, S451D/S453D/S456D/S462D)
Method: protein-binding microarray
Molecule type: double-stranded DNA, one strand shown
Matrix: in vitro
Concentration: 940 nM top
Notes: 60-bp whole probe
Added: salmon DNA 0.4 mg/ml
Reference: random background probes
Reading: higher = stronger binding
Endpoint: fitted relative affinity
All sequences stand within: GCCTAGCAC … GTCTTGATTCGCTTGACGCTGCTG
GACGGACTGGGAATGGGGACGTGCTAG: -0.312 z-score
TTAGTACTGGGGTATCGGTTAGTGCTA: 2.82 z-score
GACGGACCGCTTATCCTGACGTGCTAG: -0.12 z-score
AAGACTTTGGTTTGTACACCGTGCTAG: -0.56 z-score
GACTGTATCCTTCTCCTGACGTGCTAG: 0.582 z-score

Study 2
Target: RING finger protein unkempt homolog, zinc fingers 1-6, GST-SBP tag (UNK, Homo sapiens, UniProt Q9C0B0, residues 30-357)
Chain of UniProt Q9C0B0 (30-357, looked up): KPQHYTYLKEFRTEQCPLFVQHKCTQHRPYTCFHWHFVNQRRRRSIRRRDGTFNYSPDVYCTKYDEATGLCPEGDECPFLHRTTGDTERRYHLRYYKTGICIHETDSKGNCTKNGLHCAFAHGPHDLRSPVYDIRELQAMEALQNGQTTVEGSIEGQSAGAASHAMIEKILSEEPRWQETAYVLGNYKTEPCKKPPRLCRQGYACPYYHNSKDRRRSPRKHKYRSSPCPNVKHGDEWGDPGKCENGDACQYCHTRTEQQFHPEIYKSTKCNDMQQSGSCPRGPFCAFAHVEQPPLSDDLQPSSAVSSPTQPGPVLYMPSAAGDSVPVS
Method: RNA Bind-n-Seq
Molecule type: RNA
Matrix: in vitro
Concentration: not given
Notes: RNA with constant flanks, human-mouse chimeric sites, ends assumed
Reference: input RNA pool
Reading: higher = stronger binding
Endpoint: bound/input enrichment
All sequences stand within: GGGAGUUCUACAGUCCGACGAUC … CAACAGAGGAUUGAGCAUCA
CCUCCCCCGGGCCACCCACCCCUCCCGGCUCCCCGCCAGAGCAAGGUUUUCUUCUUAUUUCAUAGCAAAUAAGAAAAAUGUUCUACGCACAUUUUGUCCUCAGUAAACGAGGGCCUCUGG: 0.642 ratio
CUCUUUGAAUCAUUCAAGAGUUUUGAAGGUCUCUUUUAUUUUCUGGGAUCCAUUGUUAACUUUAGUCAGGACCCAGAUGUGCACUUUAAAUAUAUUCAGGCAGCUUGCAAGACUGGGCAA: 0.991 ratio
GGAAGUACAAUGAUGGAGAUUGAUGGUGAUAAAGGCAAGCAGGGCGGGCCCACCUACUACAUAGACACCAAUGCCCUCCGCGUGCCCAGGGAGAACAUGGAGGCCAUCUCACCACUCAAG: 0.229 ratio
ACUCUUGACUCUUUCCAUCCUCUUCCUUUCCCUCUUGAUAUUCAAGGCCAUGAAUCCCAAAAUAACAGUCUUAGUGGCUAGCACCCACCCAAACUGAGGUGCCAUCCACCCCAGUGUCUC: 0.403 ratio
UCUUAACUUAUUCAUUUAACUUAUUUUUAUAGCUAGAUAAAUAUUGUUAGUCUUAGACAAUAGCUCACAUUUUUUGAGAAGCAUGCCCUCCCUAUCCAUUGGGCCCAUAACAUGACCCAG: 12.9 ratio

Study 3
Target: Microphthalmia-associated transcription factor, full length (MITF, Homo sapiens, UniProt O75030-10, residues 1-413)
Method: protein-binding microarray
Molecule type: double-stranded DNA, one strand shown
Matrix: in vitro
Concentration: not given
Notes: k-mer, scored over probes, only values ≥0.25
Reading: higher = stronger binding
Endpoint: E-score
Target sequence (chain): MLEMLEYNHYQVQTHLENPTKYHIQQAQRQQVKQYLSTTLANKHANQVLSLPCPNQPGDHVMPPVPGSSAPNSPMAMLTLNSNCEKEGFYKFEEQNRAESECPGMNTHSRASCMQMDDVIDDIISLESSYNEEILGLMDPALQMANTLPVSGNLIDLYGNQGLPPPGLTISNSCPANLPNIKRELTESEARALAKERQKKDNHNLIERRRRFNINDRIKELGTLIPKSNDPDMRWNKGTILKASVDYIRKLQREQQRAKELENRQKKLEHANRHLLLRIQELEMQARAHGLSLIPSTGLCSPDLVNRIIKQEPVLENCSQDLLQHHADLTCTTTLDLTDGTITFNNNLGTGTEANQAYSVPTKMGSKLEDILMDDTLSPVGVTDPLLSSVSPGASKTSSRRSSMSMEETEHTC
CACGAGA: 0.461
CGTGCTA: 0.26
CACGTGA: 0.498
AACCCCA: 0.316

Single results of other studies
PhoQ, residues 284 288 289 292 302 303 ASHLAV — fold induction (PhoP, residues 12 14 15 18 19 YHFSH (Escherichia coli, UniProt P23836); Sort-seq, measured: YFP reporter; E. coli; PhoQ-PhoP variant library, added: 10 µM Mg2+; reference: high Mg2+ state, higher = stronger signaling): 7.87
